Experimental data pooled from the literature.
Lines come from different studies, so protocols differ.
NT5E: 5'-nucleotidase (NT5E, Homo sapiens, UniProt P21589)
Sequence of UniProt P21589 (whole entry, looked up): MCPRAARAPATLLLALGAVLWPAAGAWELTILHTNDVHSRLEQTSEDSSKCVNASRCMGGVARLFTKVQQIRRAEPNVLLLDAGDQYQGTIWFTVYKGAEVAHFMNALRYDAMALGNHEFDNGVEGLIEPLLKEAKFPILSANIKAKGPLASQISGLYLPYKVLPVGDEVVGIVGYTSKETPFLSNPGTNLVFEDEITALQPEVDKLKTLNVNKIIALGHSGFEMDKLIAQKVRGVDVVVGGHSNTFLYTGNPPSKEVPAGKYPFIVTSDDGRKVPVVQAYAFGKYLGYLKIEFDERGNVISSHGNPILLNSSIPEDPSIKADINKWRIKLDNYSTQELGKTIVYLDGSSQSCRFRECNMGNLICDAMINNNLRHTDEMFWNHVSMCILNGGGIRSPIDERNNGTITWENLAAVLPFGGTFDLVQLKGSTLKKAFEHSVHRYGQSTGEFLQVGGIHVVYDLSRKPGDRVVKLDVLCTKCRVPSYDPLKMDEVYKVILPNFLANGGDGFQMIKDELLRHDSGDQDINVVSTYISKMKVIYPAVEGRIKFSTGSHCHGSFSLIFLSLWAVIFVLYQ
AMY2: Pancreatic alpha-amylase (AMY2, Sus scrofa, UniProt P00690)
Sequence of UniProt P00690 (whole entry, looked up): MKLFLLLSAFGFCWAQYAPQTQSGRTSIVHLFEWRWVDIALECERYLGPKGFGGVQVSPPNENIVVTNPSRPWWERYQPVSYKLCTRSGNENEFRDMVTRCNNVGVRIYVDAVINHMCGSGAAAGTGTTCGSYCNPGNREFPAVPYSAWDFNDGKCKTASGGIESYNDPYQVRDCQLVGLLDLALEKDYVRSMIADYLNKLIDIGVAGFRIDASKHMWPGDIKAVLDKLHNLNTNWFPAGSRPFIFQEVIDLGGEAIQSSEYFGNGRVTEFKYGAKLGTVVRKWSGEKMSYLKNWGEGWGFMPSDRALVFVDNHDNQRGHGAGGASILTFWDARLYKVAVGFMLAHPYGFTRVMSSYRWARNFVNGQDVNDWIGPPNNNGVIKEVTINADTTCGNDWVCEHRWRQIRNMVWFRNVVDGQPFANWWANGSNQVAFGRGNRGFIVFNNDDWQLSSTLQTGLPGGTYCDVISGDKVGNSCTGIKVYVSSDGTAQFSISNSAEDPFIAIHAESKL
rep papain-like protease: Replicase polyprotein 1ab, papain-like protease (rep, Porcine epidemic diarrhea virus, UniProt P0C6Y4)
SLC6A2: Sodium-dependent noradrenaline transporter (SLC6A2, Homo sapiens, UniProt P23975)
Sequence of UniProt P23975 (whole entry, looked up): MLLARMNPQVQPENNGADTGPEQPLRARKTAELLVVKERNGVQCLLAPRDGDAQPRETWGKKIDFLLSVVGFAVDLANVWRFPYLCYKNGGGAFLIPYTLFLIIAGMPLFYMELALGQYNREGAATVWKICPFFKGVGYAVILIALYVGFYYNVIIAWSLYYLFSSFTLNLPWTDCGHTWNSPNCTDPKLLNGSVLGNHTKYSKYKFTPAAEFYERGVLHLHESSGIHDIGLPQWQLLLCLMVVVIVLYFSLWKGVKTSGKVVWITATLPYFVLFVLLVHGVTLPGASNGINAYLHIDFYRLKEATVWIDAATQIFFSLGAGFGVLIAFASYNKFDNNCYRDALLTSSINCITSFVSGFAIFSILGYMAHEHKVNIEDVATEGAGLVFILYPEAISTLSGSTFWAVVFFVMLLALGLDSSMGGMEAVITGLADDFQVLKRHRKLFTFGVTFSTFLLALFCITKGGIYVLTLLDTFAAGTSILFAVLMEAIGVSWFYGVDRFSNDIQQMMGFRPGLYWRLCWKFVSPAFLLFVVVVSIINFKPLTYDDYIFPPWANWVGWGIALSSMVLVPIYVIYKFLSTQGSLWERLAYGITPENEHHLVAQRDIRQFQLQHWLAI
PIP4K2C: Phosphatidylinositol 5-phosphate 4-kinase type-2 gamma (PIP4K2C, Homo sapiens, UniProt Q8TBX8)
Sequence of UniProt Q8TBX8 (whole entry, looked up): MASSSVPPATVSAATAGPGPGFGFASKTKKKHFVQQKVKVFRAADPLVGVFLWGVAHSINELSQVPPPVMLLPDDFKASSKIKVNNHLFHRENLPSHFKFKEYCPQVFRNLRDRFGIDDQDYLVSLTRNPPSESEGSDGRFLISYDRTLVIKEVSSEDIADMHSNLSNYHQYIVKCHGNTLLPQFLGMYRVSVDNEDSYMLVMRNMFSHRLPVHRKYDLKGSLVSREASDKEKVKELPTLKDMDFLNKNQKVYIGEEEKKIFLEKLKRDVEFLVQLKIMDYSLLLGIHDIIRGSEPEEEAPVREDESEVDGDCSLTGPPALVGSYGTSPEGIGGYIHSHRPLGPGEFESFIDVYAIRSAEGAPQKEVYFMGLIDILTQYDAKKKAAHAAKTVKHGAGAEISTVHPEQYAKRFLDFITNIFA
rep main protease: Replicase polyprotein 1ab, main protease (rep, Porcine epidemic diarrhea virus, UniProt P0C6Y4)
CDK7 with cyclin H: Cyclin-dependent kinase 7, with cyclin H (CDK7, Homo sapiens, UniProt P50613)
Sequence of UniProt P50613 (whole entry, looked up): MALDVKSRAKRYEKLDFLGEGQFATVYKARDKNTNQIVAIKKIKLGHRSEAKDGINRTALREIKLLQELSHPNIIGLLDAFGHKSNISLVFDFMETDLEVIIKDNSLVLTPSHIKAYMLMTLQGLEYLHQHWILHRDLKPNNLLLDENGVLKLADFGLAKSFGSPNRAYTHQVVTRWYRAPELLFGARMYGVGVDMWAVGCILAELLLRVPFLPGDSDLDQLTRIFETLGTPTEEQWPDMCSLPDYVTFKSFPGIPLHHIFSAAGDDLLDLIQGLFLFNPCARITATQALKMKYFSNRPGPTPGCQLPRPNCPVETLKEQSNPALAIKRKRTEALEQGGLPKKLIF
Sequence of UniProt Q13370 (whole entry, looked up): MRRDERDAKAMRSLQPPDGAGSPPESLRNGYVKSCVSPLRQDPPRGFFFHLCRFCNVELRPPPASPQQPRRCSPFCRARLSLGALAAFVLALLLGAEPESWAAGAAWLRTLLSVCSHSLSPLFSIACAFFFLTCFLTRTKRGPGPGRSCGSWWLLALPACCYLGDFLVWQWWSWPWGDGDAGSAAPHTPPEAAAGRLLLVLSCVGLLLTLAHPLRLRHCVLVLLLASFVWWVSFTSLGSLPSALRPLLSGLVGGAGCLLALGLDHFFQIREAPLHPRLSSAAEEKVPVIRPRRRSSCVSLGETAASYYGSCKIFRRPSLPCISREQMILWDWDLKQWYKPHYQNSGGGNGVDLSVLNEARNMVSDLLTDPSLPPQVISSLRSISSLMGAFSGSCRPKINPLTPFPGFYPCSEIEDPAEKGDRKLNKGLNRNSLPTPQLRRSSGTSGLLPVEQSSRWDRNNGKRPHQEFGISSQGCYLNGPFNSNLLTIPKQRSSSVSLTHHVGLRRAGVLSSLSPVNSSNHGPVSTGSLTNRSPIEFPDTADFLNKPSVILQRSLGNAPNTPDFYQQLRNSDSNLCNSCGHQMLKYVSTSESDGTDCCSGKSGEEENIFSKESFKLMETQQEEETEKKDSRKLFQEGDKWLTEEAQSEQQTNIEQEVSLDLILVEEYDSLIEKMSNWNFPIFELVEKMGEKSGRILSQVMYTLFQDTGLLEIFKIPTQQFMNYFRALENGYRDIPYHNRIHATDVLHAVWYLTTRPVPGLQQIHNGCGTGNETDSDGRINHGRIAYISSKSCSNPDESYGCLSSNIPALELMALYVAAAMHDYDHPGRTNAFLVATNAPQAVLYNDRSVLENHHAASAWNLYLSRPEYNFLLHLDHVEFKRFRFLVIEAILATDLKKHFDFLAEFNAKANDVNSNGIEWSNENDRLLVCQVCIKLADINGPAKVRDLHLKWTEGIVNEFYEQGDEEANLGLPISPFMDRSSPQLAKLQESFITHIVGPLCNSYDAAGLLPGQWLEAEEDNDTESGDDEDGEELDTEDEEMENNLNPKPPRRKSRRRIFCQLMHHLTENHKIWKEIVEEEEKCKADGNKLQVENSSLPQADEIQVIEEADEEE
Sequence of UniProt Q9NSA0 (whole entry, looked up): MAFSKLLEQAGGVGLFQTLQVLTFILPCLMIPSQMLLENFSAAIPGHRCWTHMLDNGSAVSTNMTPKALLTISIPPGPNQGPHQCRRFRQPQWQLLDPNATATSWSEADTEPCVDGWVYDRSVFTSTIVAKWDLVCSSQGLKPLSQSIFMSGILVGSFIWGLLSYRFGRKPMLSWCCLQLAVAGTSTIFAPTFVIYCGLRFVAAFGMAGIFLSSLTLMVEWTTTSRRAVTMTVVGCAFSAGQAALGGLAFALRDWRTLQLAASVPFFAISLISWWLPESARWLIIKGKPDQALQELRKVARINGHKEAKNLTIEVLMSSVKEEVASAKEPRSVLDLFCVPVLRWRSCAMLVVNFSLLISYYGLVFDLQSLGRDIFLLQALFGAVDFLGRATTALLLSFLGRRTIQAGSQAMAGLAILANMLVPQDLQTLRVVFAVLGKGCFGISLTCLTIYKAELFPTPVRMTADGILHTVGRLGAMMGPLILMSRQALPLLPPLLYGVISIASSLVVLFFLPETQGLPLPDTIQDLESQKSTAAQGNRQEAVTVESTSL
Sequence of UniProt P27361 (whole entry, looked up): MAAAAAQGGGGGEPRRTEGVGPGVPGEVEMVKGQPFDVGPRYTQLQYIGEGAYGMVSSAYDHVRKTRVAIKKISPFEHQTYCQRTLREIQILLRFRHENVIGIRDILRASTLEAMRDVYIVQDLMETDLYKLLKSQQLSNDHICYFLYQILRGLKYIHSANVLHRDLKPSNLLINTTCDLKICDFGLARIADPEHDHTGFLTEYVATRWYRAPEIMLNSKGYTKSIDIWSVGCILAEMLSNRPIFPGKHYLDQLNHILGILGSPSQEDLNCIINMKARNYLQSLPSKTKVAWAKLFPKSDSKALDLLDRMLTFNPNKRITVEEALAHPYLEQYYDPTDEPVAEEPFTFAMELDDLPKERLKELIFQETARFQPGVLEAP
Sequence of UniProt P04746 (whole entry, looked up): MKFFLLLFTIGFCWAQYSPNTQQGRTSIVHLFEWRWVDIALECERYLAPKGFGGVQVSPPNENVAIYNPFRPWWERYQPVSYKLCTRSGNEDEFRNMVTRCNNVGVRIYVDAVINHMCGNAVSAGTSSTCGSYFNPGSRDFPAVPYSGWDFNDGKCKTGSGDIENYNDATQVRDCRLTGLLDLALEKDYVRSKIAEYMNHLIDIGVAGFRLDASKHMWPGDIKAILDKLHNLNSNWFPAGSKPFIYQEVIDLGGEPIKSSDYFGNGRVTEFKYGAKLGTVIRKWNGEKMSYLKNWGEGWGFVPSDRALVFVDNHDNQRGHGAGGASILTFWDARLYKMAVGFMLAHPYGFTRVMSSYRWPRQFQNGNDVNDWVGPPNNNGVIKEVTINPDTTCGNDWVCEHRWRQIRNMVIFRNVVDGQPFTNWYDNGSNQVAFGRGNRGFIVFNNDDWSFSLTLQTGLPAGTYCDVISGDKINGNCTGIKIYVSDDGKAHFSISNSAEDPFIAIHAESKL

| Compound | target | assay | system | conditions | inhibition |
| --- | --- | --- | --- | --- | --- |
| COCCOCCOCCNC(=O)CSc1nc(-c2ccccc2)cc(C)c1C#N | NT5E | enzyme activity, inhibitor | – | 10 µM | 0% |
| Cc1cc(NS(=O)(=O)c2ccc(N=NN(C)O)cc2)no1 | AMY2 | enzyme activity, inhibitor | – | 240 µg/mL | 57.9% |
| COc1ccc(C(=O)NCc2cc(O)c(O)c(Br)c2)cc1OC | rep papain-like protease | enzyme activity, inhibitor, FRET | – | 10 µM | 56.5% |
| COC(=O)c1c(OC)cc2c(c1C)Oc1c(Cl)c(O)c(Cl)c(C)c1C(=O)O2 | SLC22A11 (Homo sapiens, UniProt Q9NSA0) | transporter uptake, inhibitor | – | 25 µM | 92.2% |
| Cc1ccc(N(O)N=Nc2ccc(S(=O)(=O)Nc3onc(C)c3C)cc2)cc1 | AMY2 | enzyme activity, inhibitor | – | 240 µg/mL | 47.4% |
| CCC(C(=O)NCc1cc(O)c(O)c(Br)c1)c1ccccc1 (centres unmarked) | rep papain-like protease | enzyme activity, inhibitor, FRET | – | 10 µM | 75.6% |
| CCN(O)N=Nc1ccc(S(=O)(=O)Nc2onc(C)c2C)cc1 | AMY2 | enzyme activity, inhibitor | – | 180 µg/mL | 42.1% |
| NC/C(=C\F)COc1cccc(Cn2c(=S)[nH]c(=O)c3[nH]cnc32)c1 | Myeloperoxidase (MPO, Homo sapiens, UniProt P05164) | enzyme activity, inhibitor, fluorescence | – | 10 µM | 99.5% |
| CCOC(=O)[C@@]12C[C@@H]1[C@@H](n1ccc3c(NCCCCCCCc4ccccc4)nc(C#Cc4ccccc4)nc31)[C@H](O)[C@@H]2O | SLC6A2 | ligand displacement, radioligand | – | 10 µM | 40% |
| CCCn1cnc2ccc(-c3ccc(NC(=O)CC)nc3)cc2c1=O | PIP4K2C | binding | – | 0.5 µM | 98.8% |
| CCc1nn(C)c2nc(-c3ccc(C(=O)O)cc3)nc(NCc3ccc(F)cc3)c12 | PDE3B (Homo sapiens, UniProt Q13370) | enzyme activity, inhibitor, radiometric | – | 10 µM | 2% |
| CCOC(=O)c1ccc(NC(=O)c2sc3nc(C)cc(C(F)(F)F)c3c2N)cc1 | NT5E | enzyme activity, inhibitor | – | 10 µM | 41% |
| COc1cc(CNC(=O)c2ccc(Cl)s2)cc(Br)c1OC | rep papain-like protease | enzyme activity, inhibitor, FRET | – | 10 µM | 25.2% |
| Cc1ccc(N(O)N=Nc2ccc(S(=O)(=O)Nc3cc(C)on3)cc2)cc1 | AMY2 | enzyme activity, inhibitor | – | 20 µg/mL | 10.5% |
| O=C(NCc1cc(O)c(O)c(Br)c1)c1ccno1 | rep main protease | enzyme activity, inhibitor, FRET | – | 10 µM | 107% |
| Cc1cccc(NC(=O)c2sc3nc(-c4ccccc4)cc(C(F)(F)F)c3c2N)n1 | NT5E | enzyme activity, inhibitor | – | 10 µM | 39% |

| Compound | target | assay | system | conditions | inhibition |
| --- | --- | --- | --- | --- | --- |
| CN1CC(Oc2cnc(C#N)cc2-c2ccn3nc(NC(=O)C4CC4)cc3c2)C1 | NUAK1 (Homo sapiens, UniProt O60285) | enzyme activity, inhibitor | – | 1 µM | -14% |
| COCCOCCOCCNC(=O)CSc1nc(C)cc(-c2ccccc2)c1C#N | NT5E | enzyme activity, inhibitor | – | 10 µM | 13% |
| Cc1cc(=O)c2c(O)cc(O)c(C3CC[N+](C)([O-])CC3O)c2o1 (centres unmarked) | CDK7 with cyclin H | enzyme activity, inhibitor, ADP detection | – | 10 µM | 25.4% |
| CC(C)C(C(=O)NCc1cc(O)c(O)c(Br)c1)c1ccc(Cl)cc1 (centres unmarked) | rep papain-like protease | enzyme activity, inhibitor, FRET | – | 10 µM | 31.9% |
| C[C@H]1O[C@H](O[C@H]2[C@H](O)[C@@H](O)[C@@H](O[C@H]3[C@H](O)[C@@H](O)C(O)O[C@@H]3CO)O[C@@H]2CO)[C@H](O)[C@@H](O)[C@@H]1N[C@H]1C=C(CO)[C@@H](O)[C@H](O)[C@H]1O (some centres unmarked) | Pancreatic alpha-amylase (Homo sapiens, UniProt P04746) | enzyme activity, inhibitor | – | 100 µg/mL | 90.3% |
| O=C(NCc1cc(O)c(O)c(Br)c1)c1ccccc1 | rep papain-like protease | enzyme activity, inhibitor, FRET | – | 10 µM | 87% |
| CCNCc1cnn(-c2ccc(-n3ccc(Cl)c(Cl)c3=O)cc2)c1C(F)(F)F | TRPC3 (Homo sapiens, UniProt Q13507) | ion current, inhibitor, patch clamp | HEK293 | 10 µM | > 90% |
| O=C(Nc1ccc(F)cc1)c1ccc2c(c1)C(=O)NC2=O | MAOB (Homo sapiens, UniProt P27338) | enzyme activity, inhibitor | – | 1 µM | 44.2% |
| O=c1cc(-c2ccccc2)oc2ccc3ccccc3c12 | CDK7 with cyclin H | enzyme activity, inhibitor, ADP detection | – | 10 µM | 85.8% |
| CNc1nc(C#Cc2ccc(Cl)s2)nc2c1ncn2[C@H]1[C@H](O)[C@H](O)[C@]2(CC#N)C[C@H]12 | SLC6A2 | ligand displacement, radioligand | – | 10 µM | 37% |
| CC[C@H](C)[C@H](NC(=O)[C@H](CCC(N)=O)NC(=O)[C@@H](NC(=O)[C@H](CCSC)NC(=O)[C@H](CCCCN)NC(=O)[C@H](CO)NC(=O)[C@@H](NC(=O)[C@H](CCSC)NC(=O)[C@H](CC(C)C)NC(=O)[C@H](CC(N)=O)NC(=O)[C@@H](NC(=O)[C@@H](NC(=O)[C@H](CO)NC(=O)[C@H](CC(C)C)NC(=O)[C@H](C)NC(=O)[C@H](CCCNC(=N)N)NC(=O)[C@H](CCC(=O)O)NC(=O)[C@H](Cc1ccc(O)cc1)NC(=O)[C@H](Cc1ccccc1)NC(=O)[C@H](C)NC(=O)[C@H](CC(N)=O)NC(=O)[C@@H](N)CCCCN)[C@@H](C)CC)[C@@H](C)CC)[C@@H](C)O)C(C)C)C(=O)N[C@@H](CC(N)=O)C(=O)N[C@H](C(=O)O)C(C)C | MAPK3 (Homo sapiens, UniProt P27361) | enzyme activity, inhibitor, radiometric | – | 1 µM | -1% |
| CCCN(O)N=Nc1ccc(S(=O)(=O)Nc2nccs2)cc1 | AMY2 | enzyme activity, inhibitor | – | 120 µg/mL | 36.8% |
| CCCCC(=O)Nc1ccc(-c2cnc3ccn(CCC)c(=O)c3c2)cn1 | PIP4K2C | binding, competition with immobilised ligand | – | 0.5 µM | 25% |
| Cc1cccc(N(O)N=Nc2ccc(S(=O)(=O)Nc3nccs3)cc2)c1 | AMY2 | enzyme activity, inhibitor | – | 240 µg/mL | 57.9% |
| C#Cc1cc(-c2cc(Nc3nc(N[C@@H](C)c4ccc(F)cn4)ncc3Cl)n[nH]2)ccc1C=O | LATS2 (Homo sapiens, UniProt Q9NRM7) | enzyme activity, inhibitor | – | 0.2 µM | 25% |
| O=C(NCc1cc(O)c(O)c(Br)c1)c1ccc(Cl)c(F)c1 | rep main protease | enzyme activity, inhibitor, FRET | – | 10 µM | 105% |
